Experimental data gathered from unrelated publications.
Several values in a cell are separate wells, animals, samples, runs or records. ± marks the error that the study gave.

Structure (SMILES)	assay	test system	conditions	how to read	quantity	value
COc1ccc(CCC(C)N2CCc3cc(O[11CH3])c(OC)cc3C2)cc1 (racemic)		brain homogenate	injection, 30 min	reference: radioactivity	parent compound fraction	96.6 ± 0.9%
CCCNC(=O)[C@H]1O[C@@H]1C(=O)N[C@H](C(=O)N1CCC[C@H]1C(=O)OCC1=C2C(C)=CC(C)=[N+]2[B-](CC)(CC)n2c(C)cc(C)c21)[C@@H](C)CC	Nd:YAG laser irradiation	methanol	irradiation at 532 nm		photodecomposition quantum yield	0.56 ± 0.02%
CCCCCCCOc1ccc(CC[C@](N)(CO)COP(=O)(O)O)cc1C(F)(F)F		healthy men, plasma	oral, 0.125 mg once daily, day 21, fed state		AUCτ	30 ng·h/mL
CC(C)=CCc1cc(C(=O)/C=C/c2ccc(O)cc2)c(O)cc1O		monkey liver microsomes	phase I metabolism		CLint	9.68 µL/min/mg
Cn1ncc2cc(CN3CCC(F)(F)C(COc4cccc(F)c4)C3)ccc21 (stereo not drawn)	equilibrium dialysis	mouse plasma			fu	0.002
CN1CCC[C@]1(C)/C=C/S(=O)(=O)NC(=O)Nc1c2c(cc3c1CC(O)C3)CCC2 (stereo partly drawn)		human, plasma	oral, 12.5 mg twice daily of parent drug, day 14, metabolite of dosed drug		AUC(0-inf)	51100 ng·h/mL
CCC1=[N+]2N=C(/C=C/c3ccccc3)C(=O)O[B-]2(c2ccccc2)Oc2cc(N(CC)CC)ccc21 (stereo not drawn)		toluene			fluorescence emission maximum	531 nm
O=C(NS(=O)(=O)c1cccs1)c1cc2ccccc2n1Cc1ccc(Br)c2ccccc12		KM mouse, chronic hyperuricaemia model	dose not given, day 18		body weight	38.8 g and 31.4 g and 35.6 g and 36.6 g and 33 g and 37.8 g
O=C(CC(F)(F)F)Nc1ccc([C@H]2[C@@H](F)[C@@H](F)C[C@@H](F)[C@H]2F)cc1	hepatocyte stability	cryopreserved rat hepatocytes	1 µM		hepatic clearance	31 mL/min/kg
COc1cccc(OC)c1-c1cc(C(=O)NC2(C(=O)O)C3CC4CC(C3)CC2C4)nn1-c1ccc(C(=O)N(C)CCCN(C)CCCN(C)C(=O)[C@H](CCCCNC(=O)[C@H](CC(C)C)NC(=O)C2OC2C(=O)O)NC(=O)CN2CCN(CC(=O)[O-])CCN(CC(=O)[O-])CCN(CC(=O)[O-])CC2)cc1C(C)C.[177Lu+3] (mixture of isomers)		mouse, HT-29 xenograft	24 h post injection, biodistribution	reference: tumour over bone uptake	tumour-to-bone ratio	8.43
O=C(N1CCCCC1)C12CC(c3ccccc3)(C1)C2(F)F	metabolic stability	human, liver microsomes	2 µM, 40 min, pH 7.4		compound remaining	73%
CC(C)OC(=O)[C@H](CO)NCc1cc(Cl)c(OCc2cccc(-c3ccccc3)c2Br)cc1OCc1cccnc1		hPD-L1 MC-38 tumour, humanised hPD-1 C57BL/6 mouse	oral, 5 mg/kg × 21, day 1, baseline		body weight	19.7 ± 0.7 g
C=CC(=O)N1CCCC(n2c(=O)c3ncccc3n(Cc3ccc(Oc4ccccc4)cc3)c2=O)C1 (stereo not drawn)	metabolic stability	human, hepatocytes	1 µM, 2 h		compound remaining	37.8%
CCn1cc(-c2cc(Cn3ccnc3)cc3c2CCN([C@H](c2cc(OC)ccn2)C2CC2)C3=O)c(C(F)(F)F)n1		CD-1 mouse, male, plasma	oral, 50 mg/kg		AUC extrapolated	1.2%
O=C(O)CCCOc1ccc([18F])cc1-c1cc(-c2ccccc2C(F)(F)F)n(-c2ccccc2)n1		mouse, large intestine	intravenous, dose not given, 180 min		tissue uptake	3.33 ± 0.5 %ID/g
O=C(CC1CCOCC1)Nc1ccc([C@H]2[C@@H](F)[C@@H](F)C[C@@H](F)[C@H]2F)cc1	liver microsome stability	human liver microsomes	1 µM, without NADPH		hepatic clearance	3.9 mL/min/kg
Cc1ccc(CN2C(=O)/C(=N\c3ccc(Cl)cc3Br)c3ccccc32)cc1		mouse, blood	100 mg/kg		Mon%	2.82 ± 0.44%
CS(=O)(=O)c1ccc(-c2ccc([C@H]3[C@@H](F)[C@@H](F)C[C@@H](F)[C@H]3F)cc2)cn1	liver microsome stability	mouse liver microsomes	1 µM		hepatic clearance	24 mL/min/kg
CC(C)C[C@H](NC(=O)[C@H](CCCN)NC(=O)CNC(=O)[C@@H](NC(=O)[C@H](C)NC(=O)[C@@H]1CSCSC[C@H](NC(=O)CC[C@H](N)C(=O)O)C(=O)N[C@@H](CC(N)=O)C(=O)N[C@@H]([C@@H](C)O)C(=O)N[C@@H](C)C(=O)N[C@@H]([C@@H](C)O)C(=O)N1)[C@@H](C)O)C(=O)N[C@@H](C)C(=O)N[C@@H](CCC(=O)O)C(=O)N[C@@](C)(Cc1ccccc1)C(=O)N[C@@H](CC(C)C)C(=O)N[C@H](C(=O)N[C@@H](CCCNC(=N)N)C(=O)N[C@@H](CO)C(=O)N[C@@H](CO)C(=O)N[C@@H](CC(N)=O)C(=O)N(C)[C@@H](CC(N)=O)C(=O)N[C@@H](Cc1ccccc1)C(=O)NCC(=O)N1CCC[C@H]1C(=O)N[C@@H](CCCCNC(=O)CC[C@H](NC(=O)CC[C@H](NC(=O)CCCCCCCCCCCCCCCCCCC(=O)O)C(=O)O)C(=O)O)C(=O)N[C@@H](CC(C)C)C(=O)N1CCC[C@H]1C(=O)N1CCC[C@H]1C(=O)N[C@H](C(=O)N[C@@H](CCC(=O)O)C(=O)N[C@H](C(=O)NCC(=O)N[C@@H](CO)C(=O)N[C@@H](CC(N)=O)C(=O)N[C@H](C(=O)N[C@@H](Cc1ccc(O)cc1)C(N)=O)[C@@H](C)O)C(C)C)[C@@H](C)O)C(C)C		human, plasma	subcutaneous, 12 mg, single dose, healthy volunteers		half-life	348 h
C[C@@H](Nc1c(-c2c(F)cc(C#N)cc2F)c(Cl)nc2ncnn12)C(C)(C)C	ELISA	5XFAD transgenic mice, cortex	intraperitoneal, 1 mg/kg twice weekly, 4 weeks		soluble Aβ42 level	decreased

Structure (SMILES)	assay	test system	conditions	how to read	quantity	value
O=C(NC1CCOCC1)c1ccc(C2CCCCC2)cc1	hepatocyte stability	cryopreserved mouse hepatocytes	1 µM		hepatic clearance	69 mL/min/kg
COc1cccc(OC)c1-c1cc(C(=O)NC2(C(=O)O)C3CC4CC(C3)CC2C4)nn1-c1ccc(C(=O)N(C)CCOCCN(C)C(=O)[C@H](CCCCNC(=O)[C@H](CC(C)C)NC(=O)C2OC2C(=O)O)NC(=O)CN2CCN(CC(=O)[O-])CCN(CC(=O)[O-])CCN(CC(=O)[O-])CC2)cc1C(C)C.[177Lu+3] (mixture of isomers)		mouse HT-29 xenograft, large intestine	72 h post injection, biodistribution		tissue uptake	0.119 %ID/g
C=CC(=O)Nc1cc(Nc2nccc(-c3cn(C)c4ccccc34)n2)c(OC)cc1N(C)CCNC	storage stability	human plasma samples	30 d, -80 °C, LQC level	reference: nominal concentration	percentage recovery	17.9%
C=C[C@]1(C)C[C@@H](OC(=O)CSc2ccc(NC(=O)c3ccco3)cc2)[C@]2(C)[C@H](C)CC[C@]3(CCC(=O)[C@H]32)[C@@H](C)[C@@H]1O		M. gallisepticum-infected chickens, plasma	intramuscular, 80 mg/kg single dose		elimination half-life	4.87 h
Cc1nn(-c2nc3c(F)cc(F)cc3s2)c(O)c1C(c1ccc(C(F)(F)F)cc1)c1c(C)nn(-c2nc3c(F)cc(F)cc3s2)c1O		ICR mouse, plasma	oral, 50 mg/kg		AUC extrapolated observed	0.662% and 6.42% and 0.257%
C=CC(=O)Nc1cc(Nc2nccc(-c3c[nH]c4ccccc34)n2)c(OC)cc1N(C)CCN(C)C	storage stability	human dried blood spot	10 d, -80 °C, LQC level		recovery	100%
O=C(Nc1cnccc1-c1ccc([18F])cc1)c1ccnc(NC(=O)C2CC2)c1		FVB/NJ mice, both sexes, brain	intravenous, 30 min, median, P-gp inhibitor pretreatment, added: tariquidar 15 mg/kg iv		SUV	0.4
CNC(=O)c1ccc(C2CCCCC2)cc1	hepatocyte stability	cryopreserved rat hepatocytes	1 µM		hepatic clearance	49 mL/min/kg
CC(C)(C)C(=O)Nc1ccc2[nH]c(CN3CCC(N(CCCN4CCOCC4)CC4OC(n5cnc6c(N)ncnc65)C(O)C4O)CC3)nc2c1 (stereo not drawn)		male Sprague-Dawley rat, plasma	intraperitoneal, 20 mg/kg, 2 h		concentration	363 ng/mL
Cc1nc(N)nc2c1C(=O)N[C@@H](c1ccc(F)cc1-c1cccc(O[11CH3])n1)C2	ex vivo biodistribution	mice, U87 subcutaneous xenograft, heart	60 min post-injection, baseline, vehicle pre-treatment		SUV	1.7 ± 0.1
COc1cccc(OC)c1-c1cc(C(=O)NC2(C(=O)O)C3CC4CC(C3)CC2C4)nn1-c1ccc(C(=O)N(C)CCOCCOCCN(C)C(=O)[C@H](CCCCNC(=O)[C@H](CC(C)C)NC(=O)C2OC2C(=O)O)NC(=O)CN2CCN(CC(=O)[O-])CCN(CC(=O)[O-])CCN(CC(=O)[O-])CC2)cc1C(C)C.[177Lu+3] (mixture of isomers)		mouse, HT-29 xenograft	168 h post injection, biodistribution	reference: tumour over kidney uptake	tumour-to-kidney ratio	0.49
COC(=O)[C@@]1(C)C=C(C(=O)Nc2cccc(C(=O)Nc3ccc(Nc4nccc(-c5cccnc5)n4)c(C)c3)c2)C(=O)CC1		Wistar rat, male, plasma	1 µM, 10 min		compound remaining	55.9%
CCN(CC)c1ccc2c(c1)O[B-]1(c3ccc(C)cc3)OC(=O)C(c3ccccc3)=N[N+]1=C2 (stereo not drawn)		toluene			fluorescence lifetime	2.4 ns
O=C(O)c1ccc(/C=C2\SC(=S)N(Cc3cccc(C(F)(F)F)c3)C2=O)cc1		mouse liver microsomes	1 µM		hepatic clearance	< 20.7 mL/min/kg
C=C(NC(=O)c1csc(-c2nc3c(cc2O)-c2nc(cs2)C(=O)NC(C(C)O)C(=O)NC(=C(C)OC)c2nc(cs2)C(=O)NC2c4nc(cs4)C(=O)NC(COC(=O)c4c5c6c(cccc6n4O)COC(=O)C(OC4CC(C)(O)C(N(C)C)C(C)O4)C2OC5)c2nc-3cs2)n1)C(N)=O (stereo not drawn)		ICR mice, Streptococcus pneumoniae ATCC 49169 infected, immunocompromised, blood	intravenous, 4 mg/kg/day once daily		AUC(0-t)	311 ng·h/mL
CCC(CC)n1c(Cc2ccco2)nc2cc(C(=O)N[C@@H](CC(=O)O)c3ccccc3)ccc21		Sprague-Dawley rat, male, plasma	ip, 10 mg/kg		volume of distribution (Vz)	12.9 ± 1.33 L/kg
COCC1CN(C2CCN(c3cc(OC)c(Nc4ncc(Br)c(Nc5ccc6c(c5P(C)(C)=O)OCCO6)n4)cc3C)CC2)C1		EGFR-mutant NSCLC patients, plasma	oral, 240 mg single dose, geometric mean		t1/2	33.7 h
CN(C(=O)C(C)(C)c1cc(C(F)(F)F)cc(C(F)(F)F)c1)c1cnc(N2CC(CO)NCC2CO)cc1-c1ccc(F)cc1CO (stereo not drawn)		healthy male human	oral, 120 mg, up to 480 h cumulative	reference: dose	amount excreted in faeces	1.71% and ~2%
O=C(Oc1cccc(CSc2ncccn2)c1)c1ccc([N+](=O)[O-])cc1		mouse liver microsomes	5 min, added: with or without NADPH		parent compound detection	not detected

Excerpt of the above:
Structure (SMILES)	assay	test system	conditions	how to read	quantity	value
CNC(=O)c1ccc(C2CCCCC2)cc1	hepatocyte stability	cryopreserved rat hepatocytes	1 µM		hepatic clearance	49 mL/min/kg
Cc1nc(N)nc2c1C(=O)N[C@@H](c1ccc(F)cc1-c1cccc(O[11CH3])n1)C2	ex vivo biodistribution	mice, U87 subcutaneous xenograft, heart	60 min post-injection, baseline, vehicle pre-treatment		SUV	1.7 ± 0.1
